# Measured values from different studies.
# Protocols differ between the studies behind these lines. Numbers after ± are the reported error.
# U2AF2: U2AF2 148-342 (Homo sapiens, UniProt P26368)
# Chain of UniProt P26368 (whole entry, looked up): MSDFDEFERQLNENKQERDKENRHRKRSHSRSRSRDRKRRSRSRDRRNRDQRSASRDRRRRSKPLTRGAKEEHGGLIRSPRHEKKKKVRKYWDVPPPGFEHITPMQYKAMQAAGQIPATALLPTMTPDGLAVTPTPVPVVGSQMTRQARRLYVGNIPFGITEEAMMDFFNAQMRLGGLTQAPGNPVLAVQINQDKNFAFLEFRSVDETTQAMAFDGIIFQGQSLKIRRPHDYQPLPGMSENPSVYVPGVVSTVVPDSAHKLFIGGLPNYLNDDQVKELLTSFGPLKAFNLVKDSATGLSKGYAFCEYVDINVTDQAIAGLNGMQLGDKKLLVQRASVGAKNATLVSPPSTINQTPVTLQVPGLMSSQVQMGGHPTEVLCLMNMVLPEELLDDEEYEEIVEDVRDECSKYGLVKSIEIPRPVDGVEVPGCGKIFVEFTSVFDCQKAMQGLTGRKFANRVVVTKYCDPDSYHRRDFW
# B1: TOC33 truncated, lacking membrane anchor (Arabidopsis thaliana); chain MGSLVREWVGFQQFPAATQEKLIEFFGKLKQKDMNSMTVLVLGKGGVGKSSTVNSLIGEQVVRVSPFQAEGLRPVMVSRTMGGFTINIIDTPGLVEAGYVNHQALELIKGFLVNRTIDVLLYVDRLDVYRVDELDKQVVIAITQTFGKEIWCKTLLVLTHAQFSPPDELSYETFSSKRSDSLLKTIRAGSKMRKQEFEDSAIAVVYAENSGRCSKNDKDEKALPNGEAWIPNLVKAITDVATNQRKAIHVD
# B2: ADRB1 W183A (Homo sapiens, UniProt P08588); sequence looked up; chain MGAGVLVLGASEPGNLSSAAPLPDGAATAARLLVPASPPASLLPPASESPEPLSQQWTAGMGLLMALIVLLIVAGNVLVIVAIAKTPRLQTLTNLFIMSLASADLVMGLLVVPFGATIVVWGRWEYGSFFCELWTSVDVLCVTASIETLCVIALDRYLAITSPFRYQSLLTRARARGLVCTVAAISALVSFLPILMHWWRAESDEARRCYNDPKCCDFVTNRAYAIASSVVSFYVPLCIMAFVYLRVFREAQKQVKKIDSCERRFLGGPARPPSPSPSPVPAPAPPPGPPRPAAAAATAPLANGRAGKRRPSRLVALREQKALKTLGIIMGVFTLCWLPFFLANVVKAFHRELVPDRLFVFFNWLGYANSAFNPIIYCRSPDFRKAFQGLLCCARRAARRRHATHGDRPRASGCLARPGPPPSPGAASDDDDDDVVGATPPARLLEPWAGCNGGAAADSDSSLDEPCRPGFASESKV
# B3: Ikbkg 1-355 C54S/K285N (Mus musculus, UniProt O88522); sequence looked up; chain MNKHPWKNQLSEMVQPSGGPAEDQDMLGEESSLGKPAMLHLPSEQGTPETLQRSLEENQELRDAIRQSNQMLRERCEELLHFQVSQREEKEFLMCKFQEARKLVERLSLEKLDLRSQREQALKELEQLKKCQQQMAEDKASVKAQVTSLLGELQESQSRLEAATKDRQALEGRIRAVSEQVRQLESEREVLQQQHSVQVDQLRMQNQSVEAALRMERQAASEEKRKLAQLQAAYHQLFQDYDSHIKSSKGMQLEDLRQQLQQAEEALVAKQELIDKLKEEAEQHNIVMETVPVLKAQADIYKADFQAERHAREKLVEKKEYLQEQLEQLQREFNKLKVGCHESARIEDMRKRHVE
# B4: ABCC2 203-1623 (Arabidopsis thaliana, UniProt Q42093); sequence looked up; chain YMPVRSETVDDYEYEEISDGQQICPEKHANIFDKIFFSWMNPLMTLGSKRPLTEKDVWYLDTWDQTETLFTSFQHSWDKELQKPQPWLLRALNNSLGGRFWWGGFWKIGNDCSQFVGPLLLNQLLKSMQEDAPAWMGYIYAFSIFVGVVFGVLCEAQYFQNVMRVGYRLRSALIAAVFRKSLRLTNEGRRKFQTGKITNLMTTDAESLQQICQSLHTMWSAPFRIIIALILLYQQLGVASLIGALLLVLMFPLQTVIISKMQKLTKEGLQRTDKRIGLMNEVLAAMDTVKCYAWENSFQSKVQTVRDDELSWFRKSQLLGALNMFILNSIPVLVTIVSFGVFTLLGGDLTPARAFTSLSLFAVLRFPLFMLPNIITQVVNANVSLKRLEEVLATEERILLPNPPIEPGEPAISIRNGYFSWDSKGDRPTLSNINLDVPLGSLVAVVGSTGEGKTSLISAILGELPATSDAIVTLRGSVAYVPQVSWIFNATVRDNILFGSPFDREKYERAIDVTSLKHDLELLPGGDLTEIGERGVNISGGQKQRVSMARAVYSNSDVYIFDDPLSALDAHVGQQVFEKCIKRELGQKTRVLVTNQLHFLSQVDRIVLVHEGTVKEEGTYEELSSNGPLFQRLMENAGKVEEYSEENGEAEADQTAEQPVANGNTNGLQMDGSDDKKSKEGNKKGGKSVLIKQEERETGVVSWRVLKRYQDALGGAWVVMMLLLCYVLTEVFRVTSSTWLSEWTDAGTPKSHGPLFYNLIYALLSFGQVLVTLTNSYWLIMSSLYAAKKLHDNMLHSILRAPMSFFHTNPLGRIINRFAKDLGDIDRTVAVFVNMFMGQVSQLLSTVVLIGIVSTLSLWAIMPLLVLFYGAYLYYQNTAREVKRMDSISRSPVYAQFGEALNGLSTIRAYKAYDRMADINGRSMDNNIRFTLVNMGANRWLGIRLETLGGLMIWLTASFAVMQNGRAENQQAFASTMGLLLSYALNITSLLTGVLRLASLAENSLNAVERVGNYIEIPPEAPPVIENNRPPPGWPSSGSIKFEDVVLRYRPQLPPVLHGVSFFIHPTDKVGIVGRTGAGKSSLLNALFRIVEVEKGRILIDDCDVGKFGLMDLRKVLGIIPQSPVLFSGTVRFNLDPFGEHNDADLWESLERAHLKDTIRRNPLGLDAEVSEAGENFSVGQRQLLSLSRALLRRSKILVLDEATAAVDVRTDALIQKTIREEFKSCTMLIIAHRLNTIIDCDKILVLDSGRVQEFSSPENLLSNEGSSFSKMVQSTGAANAEYLRSLVLDNKRAKDDSHHLQGQRKWLASSRWAAAAQFALAASLTSSHNDLQSLEIEDDSSILKRTNDAVVTLRSVLEGKHDKEIAESLEEHNISREGWLSSLYRMVEGLAVMSRLARNRMQQPDYNFEGNTFDWDNVEM
# B5: clcA C85A/H234C (Escherichia coli, UniProt P37019); chain MKTDTPSLETPQAARLRRRQLIRQLLERDKTPLAILFMAAVVGTLVGLAAVAFDKGVAWLQNQRMGALVHTADNYPLLLTVAFLASAVLAMFGYFLVRKYAPEAGGSGIPEIEGALEDQRPVRWWRVLPVKFFGGLGTLGGGMVLGREGPTVQIGGNIGRMVLDIFRLKGDEARHTLLATGAAAGLAAAFNAPLAGILFIIEEMRPQFRYTLISIKAVFIGVIMSTIMYRIFNCEVALIDVGKLSDAPLNTLWLYLILGIIFGIFGPIFNKWVLGMQDLLHRVHGGNITKWVLMGGAIGGLCGLLGFVAPATSGGGFNLIPIATAGNFSMGMLVFIFVARVITTLLCFSSGAPGGIFAPMLALGTVLGTAFGMVAVELFPQYHLEAGTFAIAGMGALLAASIRAPLTGIILVLEMTDNYQLILPMIITGLGATLLAQFTGGKPLYSAILARTLAKQEAEQLARSKAASASENT
# B6: S100A5 (Homo sapiens, UniProt P33763); sequence looked up; chain METPLEKALTTMVTTFHKYSGREGSKLTLSRKELKELIKKELCLGEMKESSIDDLMKSLDKNSDQEIDFKEYSVFLTMLCMAYNDFFLEDNK
# B7: emrE (Escherichia coli, UniProt P23895); sequence looked up; chain MNPYIYLGGAILAEVIGTTLMKFSEGFTRLWPSVGTIICYCASFWLLAQTLAYIPTGIAYAIWSGVGIVLISLLSWGFFGQRLDLPAIIGMMLICAGVLIINLLSRSTPH
# B8: S100P (Homo sapiens, UniProt P25815); sequence looked up; chain MTELETAMGMIIDVFSRYSGSEGSTQTLTKGELKVLMEKELPGFLQSGKDKDAVDKLLKDLDANGDAQVDFSEFIVFVAAITSACHKYFEKAGLK
# B9: Creb1 270-341 (Rattus norvegicus, UniProt P15337-1); sequence looked up; chain SSPALPTQPAEEAARKREVRLMKNREAARECRRKKKEYVKCLENRVAVLENQNKTLIEELKALKDLYCHKSD
# B10: ph-p SAM 1397-1577 D33K/D34R (Drosophila melanogaster, UniProt P39769); sequence looked up; chain GVGSGETNGLGTGGIVGVDAMALVDRLDEAMAEEKMQTEATPKLSESFPILGASTEVPPMSLPVQAAISAPSPLAMPLGSPLSVALPTLAPLSVVTSGAAPKSSEVNGTDRPPISSWSVDDVSNFIRELPGCQDYVKRFIQQEIDGQALLLLKEKHLVNAMGMKLGPALKIVAKVESIKEV
# B11: S100A8 (Homo sapiens, UniProt P05109); sequence looked up; chain MLTELEKALNSIIDVYHKYSLIKGNFHAVYRDDLKKLLETECPQYIRKKGADVWFKELDINTDGAVNFQEFLILVIKMGVAAHKKSHEESHKE
# B12: CRYAA G98R/R157Q (Homo sapiens, UniProt P02489); sequence looked up; chain MDVTIQHPWFKRTLGPFYPSRLFDQFFGEGLFEYDLLPFLSSTISPYYRQSLFRTVLDSGISEVRSDRDKFVIFLDVKHFSPEDLTVKVQDDFVEIHRKHNERQDDHGYISREFHRRYRLPSNVDQSALSCSLSADGMLTFCGPKIQTGLDATHAEQAIPVSREEKPTSAPSS
# Chain of UniProt P13393 (whole entry, looked up): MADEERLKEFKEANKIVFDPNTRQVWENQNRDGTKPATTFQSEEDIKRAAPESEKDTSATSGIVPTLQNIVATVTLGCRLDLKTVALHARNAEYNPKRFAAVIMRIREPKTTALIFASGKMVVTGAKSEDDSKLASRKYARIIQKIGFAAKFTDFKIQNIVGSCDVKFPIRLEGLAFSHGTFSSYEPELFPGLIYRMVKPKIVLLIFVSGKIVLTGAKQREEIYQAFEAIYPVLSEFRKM
# Chain of UniProt P34540 (whole entry, looked up): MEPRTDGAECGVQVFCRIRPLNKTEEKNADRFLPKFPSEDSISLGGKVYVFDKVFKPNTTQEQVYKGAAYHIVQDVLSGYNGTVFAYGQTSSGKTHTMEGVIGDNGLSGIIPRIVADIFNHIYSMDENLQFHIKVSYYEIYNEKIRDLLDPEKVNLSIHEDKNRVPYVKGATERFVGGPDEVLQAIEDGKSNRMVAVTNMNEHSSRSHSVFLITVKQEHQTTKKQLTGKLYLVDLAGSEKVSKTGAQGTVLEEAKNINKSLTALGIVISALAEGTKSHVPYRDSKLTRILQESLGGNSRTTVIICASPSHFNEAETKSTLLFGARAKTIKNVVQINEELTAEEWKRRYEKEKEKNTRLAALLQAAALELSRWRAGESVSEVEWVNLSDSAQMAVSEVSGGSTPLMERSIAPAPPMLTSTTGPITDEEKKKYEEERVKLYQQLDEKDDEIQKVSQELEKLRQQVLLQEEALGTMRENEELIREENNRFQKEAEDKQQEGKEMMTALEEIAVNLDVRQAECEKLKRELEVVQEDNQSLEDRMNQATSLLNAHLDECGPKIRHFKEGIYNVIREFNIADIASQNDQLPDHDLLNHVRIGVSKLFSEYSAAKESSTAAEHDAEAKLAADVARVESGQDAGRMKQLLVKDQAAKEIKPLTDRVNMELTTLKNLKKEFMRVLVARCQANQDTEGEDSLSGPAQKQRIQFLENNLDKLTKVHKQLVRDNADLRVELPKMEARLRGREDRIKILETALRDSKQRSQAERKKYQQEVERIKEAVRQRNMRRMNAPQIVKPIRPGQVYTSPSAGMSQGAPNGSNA
# Chain of UniProt P46822 (whole entry, looked up): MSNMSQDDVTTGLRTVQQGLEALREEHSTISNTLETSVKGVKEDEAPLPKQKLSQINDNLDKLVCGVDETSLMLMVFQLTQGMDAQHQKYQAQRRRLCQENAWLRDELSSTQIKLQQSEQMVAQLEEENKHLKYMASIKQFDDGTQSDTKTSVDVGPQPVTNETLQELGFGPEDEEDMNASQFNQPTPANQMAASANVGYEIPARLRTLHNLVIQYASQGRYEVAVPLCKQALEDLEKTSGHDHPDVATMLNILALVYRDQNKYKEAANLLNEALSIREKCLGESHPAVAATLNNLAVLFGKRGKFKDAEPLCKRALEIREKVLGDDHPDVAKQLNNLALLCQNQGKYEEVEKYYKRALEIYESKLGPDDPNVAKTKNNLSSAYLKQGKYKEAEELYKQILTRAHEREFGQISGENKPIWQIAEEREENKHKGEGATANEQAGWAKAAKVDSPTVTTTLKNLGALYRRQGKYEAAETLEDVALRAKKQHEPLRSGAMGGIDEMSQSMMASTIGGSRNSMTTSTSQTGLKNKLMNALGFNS
Molecule,target or system,test,test system,conditions,scale,measurement,result
B1,itself,fluorescence kinetics,,"22 °C, with: mantGDP",,koff,0.0032 s⁻¹
B2 (ADRB1 W183A),itself,BRET,,W183A mutant,higher = weaker self-association,BRET50,4.1 GFP/Rluc ratio
"unc-116 (Caenorhabditis elegans, UniProt P34540)",itself,mass photometry,,,,dimer particles,82 % peak
B3 (Ikbkg 1-355 C54S/K285N),itself,AUC,,,,Kd,25.6 µM
B4 (ABCC2 203-1623),itself,mass photometry,,,,binding,binds
"klc-2 (Caenorhabditis elegans, UniProt P46822)",itself,mass photometry,,,,dimer particles,21 % peak
B5 (clcA C85A/H234C),itself,FRET,,subunit exchange,,exchange subunit half-time,8.9 ± 1.8 days
AACUUUUCU (ssRNA),U2AF2,sequencing of bound RNA,RNA,motif only,,Kd,1.75 µM
human hornerin,CYB5R4 knockout human cells,"PP4 interaction, 3xFLAG-PP4C IP-MS",,concentration not given,relative to: CYB5R4 KO over parental,log2 fold change,1.67
B6 (S100A5),itself,AUC,,with: calcium,,Kd,70 ± 15 µM
B7 (emrE),itself,AUC,,,,Kd,4 ± 2 µM
B8 (S100P),itself,AUC,,,,Kd,160 ± 30 µM
B9 (Creb1 270-341),itself,mass photometry,,,,Kd,0.015 µM
"RQIVDAQAVCTRCKESADFWCFECEQLLCAKCFEAHQWFLKHEARPLAE (PML 120-168 (Homo sapiens, UniProt P29590-1); sequence looked up)",itself,AUC,,,,Kd,115 ± 5 µM
GUUAAGUUU (ssRNA),U2AF2,sequencing of bound RNA,RNA,motif only,,Kd,2.46 µM
B10 (ph-p SAM 1397-1577 D33K/D34R),itself,AUC,,,,binding,binds
GGGGGCTATAAAAGGGGGTGGGGGCGCGTTCGTCCTCAAGTCAATCGGTCC (dsDNA; 5'-amino-C6 primer),"SPT15 full length assumed (Saccharomyces cerevisiae, UniProt P13393)",array,"double-stranded DNA, one strand shown",TBP alone,,Kd,0.0242 ± 0.00201 µM
B11 (S100A8),itself,AUC,,with: calcium,,Kd,8 ± 2 µM
B12 (CRYAA G98R/R157Q),itself,SEC-MALS,,"1 hour h, pH 7.4, 37 °C",,binding,binds

# Excerpt of the above:
Molecule,target or system,test,test system,conditions,scale,measurement,result
human hornerin,CYB5R4 knockout human cells,"PP4 interaction, 3xFLAG-PP4C IP-MS",,concentration not given,relative to: CYB5R4 KO over parental,log2 fold change,1.67
GUUAAGUUU (ssRNA),U2AF2,sequencing of bound RNA,RNA,motif only,,Kd,2.46 µM
